Measured values of several laboratories.
A part holds a random share of what one study measured. Several values in a cell are separate wells, animals, samples, runs or records.
Chain of UniProt Q9UM73 (whole entry, looked up): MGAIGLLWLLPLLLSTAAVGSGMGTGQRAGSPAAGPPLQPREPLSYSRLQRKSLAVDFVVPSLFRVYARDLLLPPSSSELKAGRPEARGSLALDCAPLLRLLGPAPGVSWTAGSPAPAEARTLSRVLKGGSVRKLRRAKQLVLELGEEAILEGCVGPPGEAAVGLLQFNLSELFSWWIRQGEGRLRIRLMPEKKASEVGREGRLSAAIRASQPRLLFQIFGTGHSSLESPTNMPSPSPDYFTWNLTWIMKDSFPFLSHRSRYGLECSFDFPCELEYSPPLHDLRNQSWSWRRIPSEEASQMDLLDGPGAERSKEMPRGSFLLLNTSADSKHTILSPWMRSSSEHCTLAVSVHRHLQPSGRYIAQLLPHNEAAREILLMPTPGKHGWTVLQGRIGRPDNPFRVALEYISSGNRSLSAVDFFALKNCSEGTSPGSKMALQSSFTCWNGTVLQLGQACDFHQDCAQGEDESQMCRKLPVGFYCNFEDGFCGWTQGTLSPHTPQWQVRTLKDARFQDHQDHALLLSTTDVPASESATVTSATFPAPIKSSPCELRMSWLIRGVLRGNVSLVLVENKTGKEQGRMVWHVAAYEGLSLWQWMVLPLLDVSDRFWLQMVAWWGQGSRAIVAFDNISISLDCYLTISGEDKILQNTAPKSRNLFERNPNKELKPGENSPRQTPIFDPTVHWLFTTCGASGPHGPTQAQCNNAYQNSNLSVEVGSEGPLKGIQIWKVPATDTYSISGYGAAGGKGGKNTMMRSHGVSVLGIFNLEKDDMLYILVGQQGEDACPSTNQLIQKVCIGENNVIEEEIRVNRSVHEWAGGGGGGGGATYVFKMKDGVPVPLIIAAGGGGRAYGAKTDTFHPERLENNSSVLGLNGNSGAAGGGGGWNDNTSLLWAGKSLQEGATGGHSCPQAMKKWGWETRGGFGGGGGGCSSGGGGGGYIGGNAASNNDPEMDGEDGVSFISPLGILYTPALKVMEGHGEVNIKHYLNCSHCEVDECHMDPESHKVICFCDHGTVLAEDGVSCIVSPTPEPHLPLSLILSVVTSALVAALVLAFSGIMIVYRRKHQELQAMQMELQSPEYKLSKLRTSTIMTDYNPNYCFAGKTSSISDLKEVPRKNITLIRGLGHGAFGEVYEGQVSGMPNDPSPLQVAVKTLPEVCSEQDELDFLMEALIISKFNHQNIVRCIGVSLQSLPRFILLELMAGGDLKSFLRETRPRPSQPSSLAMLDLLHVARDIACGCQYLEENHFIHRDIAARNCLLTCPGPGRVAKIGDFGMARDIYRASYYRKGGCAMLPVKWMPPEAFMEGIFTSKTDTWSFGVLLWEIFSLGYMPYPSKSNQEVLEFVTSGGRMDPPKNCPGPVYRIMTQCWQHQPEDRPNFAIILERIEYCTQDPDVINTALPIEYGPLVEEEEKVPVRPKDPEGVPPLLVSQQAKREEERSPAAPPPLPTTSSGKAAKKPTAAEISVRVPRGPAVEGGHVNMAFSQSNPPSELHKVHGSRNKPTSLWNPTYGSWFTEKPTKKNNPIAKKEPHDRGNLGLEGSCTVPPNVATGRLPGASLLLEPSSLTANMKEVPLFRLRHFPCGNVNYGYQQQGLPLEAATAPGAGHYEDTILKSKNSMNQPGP
Chain of UniProt Q5VT25 (whole entry, looked up): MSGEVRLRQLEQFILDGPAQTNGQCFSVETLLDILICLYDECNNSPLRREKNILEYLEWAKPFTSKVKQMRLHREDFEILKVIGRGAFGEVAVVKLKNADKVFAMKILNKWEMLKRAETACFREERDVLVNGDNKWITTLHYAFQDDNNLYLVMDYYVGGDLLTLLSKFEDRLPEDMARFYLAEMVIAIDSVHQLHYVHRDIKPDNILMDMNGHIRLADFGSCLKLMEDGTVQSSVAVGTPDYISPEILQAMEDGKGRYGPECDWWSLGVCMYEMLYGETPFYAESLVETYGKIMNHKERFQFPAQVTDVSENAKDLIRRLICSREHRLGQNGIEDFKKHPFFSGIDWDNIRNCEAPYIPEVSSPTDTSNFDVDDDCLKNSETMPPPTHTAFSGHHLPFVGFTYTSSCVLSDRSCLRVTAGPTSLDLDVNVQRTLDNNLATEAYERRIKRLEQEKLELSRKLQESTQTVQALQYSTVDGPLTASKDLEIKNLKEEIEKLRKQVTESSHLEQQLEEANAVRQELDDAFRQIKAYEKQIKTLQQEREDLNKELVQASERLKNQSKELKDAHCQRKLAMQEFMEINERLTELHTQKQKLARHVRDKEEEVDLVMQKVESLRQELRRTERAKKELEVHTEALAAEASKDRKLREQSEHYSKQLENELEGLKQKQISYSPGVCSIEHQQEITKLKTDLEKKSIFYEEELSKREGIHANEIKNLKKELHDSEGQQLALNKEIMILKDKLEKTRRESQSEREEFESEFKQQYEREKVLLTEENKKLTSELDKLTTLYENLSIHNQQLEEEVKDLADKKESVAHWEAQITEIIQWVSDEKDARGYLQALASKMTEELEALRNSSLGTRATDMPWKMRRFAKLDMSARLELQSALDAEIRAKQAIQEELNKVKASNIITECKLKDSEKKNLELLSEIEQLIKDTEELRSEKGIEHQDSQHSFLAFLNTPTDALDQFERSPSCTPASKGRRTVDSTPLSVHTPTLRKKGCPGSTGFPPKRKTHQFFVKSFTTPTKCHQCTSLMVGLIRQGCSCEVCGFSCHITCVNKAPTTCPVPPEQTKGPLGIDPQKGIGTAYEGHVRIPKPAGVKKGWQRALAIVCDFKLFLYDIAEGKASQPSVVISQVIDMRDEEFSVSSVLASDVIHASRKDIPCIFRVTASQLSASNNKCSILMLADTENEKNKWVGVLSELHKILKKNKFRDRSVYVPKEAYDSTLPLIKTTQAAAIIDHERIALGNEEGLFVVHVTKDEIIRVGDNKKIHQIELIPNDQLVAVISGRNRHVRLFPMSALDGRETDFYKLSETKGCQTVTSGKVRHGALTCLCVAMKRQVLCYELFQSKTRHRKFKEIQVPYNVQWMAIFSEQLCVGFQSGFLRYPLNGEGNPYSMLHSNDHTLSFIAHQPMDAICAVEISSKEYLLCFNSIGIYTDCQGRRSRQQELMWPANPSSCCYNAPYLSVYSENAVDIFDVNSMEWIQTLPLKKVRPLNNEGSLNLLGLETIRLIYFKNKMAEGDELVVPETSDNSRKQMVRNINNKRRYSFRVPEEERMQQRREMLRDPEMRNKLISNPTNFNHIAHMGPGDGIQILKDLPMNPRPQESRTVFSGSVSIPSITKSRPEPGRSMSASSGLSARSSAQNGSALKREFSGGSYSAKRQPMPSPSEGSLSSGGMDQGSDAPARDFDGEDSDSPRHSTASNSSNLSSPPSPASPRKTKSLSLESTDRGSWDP
Chain of UniProt Q9UBE8 (whole entry, looked up): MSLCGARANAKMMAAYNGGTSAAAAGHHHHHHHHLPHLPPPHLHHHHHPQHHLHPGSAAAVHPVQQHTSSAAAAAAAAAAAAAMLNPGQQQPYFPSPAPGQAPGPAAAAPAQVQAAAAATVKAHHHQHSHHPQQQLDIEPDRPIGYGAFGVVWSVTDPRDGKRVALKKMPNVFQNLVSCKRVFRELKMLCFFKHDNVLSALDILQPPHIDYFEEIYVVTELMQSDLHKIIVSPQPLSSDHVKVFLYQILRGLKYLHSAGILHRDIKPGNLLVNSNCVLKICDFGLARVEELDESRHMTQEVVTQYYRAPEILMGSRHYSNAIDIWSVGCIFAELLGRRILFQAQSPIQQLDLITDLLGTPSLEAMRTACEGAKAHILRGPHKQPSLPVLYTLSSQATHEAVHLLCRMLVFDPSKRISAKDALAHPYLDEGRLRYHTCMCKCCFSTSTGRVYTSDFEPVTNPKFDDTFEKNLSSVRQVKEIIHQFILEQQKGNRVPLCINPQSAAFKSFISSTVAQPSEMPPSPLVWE
Chain of UniProt Q9H1R3 (whole entry, looked up): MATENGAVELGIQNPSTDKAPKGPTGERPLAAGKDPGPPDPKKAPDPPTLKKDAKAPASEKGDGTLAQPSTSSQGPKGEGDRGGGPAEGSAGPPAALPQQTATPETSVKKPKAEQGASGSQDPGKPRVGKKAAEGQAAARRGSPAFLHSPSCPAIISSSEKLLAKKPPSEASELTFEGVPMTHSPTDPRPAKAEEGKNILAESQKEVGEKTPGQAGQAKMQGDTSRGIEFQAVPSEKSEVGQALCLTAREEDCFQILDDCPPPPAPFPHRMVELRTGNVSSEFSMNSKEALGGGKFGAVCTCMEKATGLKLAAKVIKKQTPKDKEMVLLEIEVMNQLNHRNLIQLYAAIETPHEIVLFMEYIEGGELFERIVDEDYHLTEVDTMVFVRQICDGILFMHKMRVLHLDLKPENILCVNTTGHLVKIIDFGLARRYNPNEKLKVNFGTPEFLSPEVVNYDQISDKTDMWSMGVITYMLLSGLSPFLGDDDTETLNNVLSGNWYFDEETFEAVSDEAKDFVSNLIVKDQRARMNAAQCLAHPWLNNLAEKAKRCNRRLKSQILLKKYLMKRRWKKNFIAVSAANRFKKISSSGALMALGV

Set 1 — observed: enzyme activity; action: inhibitor; tested at: 10 µM
Target: Calcium/calmodulin-dependent protein kinase type II subunit alpha (CAMK2A, Homo sapiens, UniProt Q9UQM7)
Chain of UniProt Q9UQM7 (whole entry, looked up): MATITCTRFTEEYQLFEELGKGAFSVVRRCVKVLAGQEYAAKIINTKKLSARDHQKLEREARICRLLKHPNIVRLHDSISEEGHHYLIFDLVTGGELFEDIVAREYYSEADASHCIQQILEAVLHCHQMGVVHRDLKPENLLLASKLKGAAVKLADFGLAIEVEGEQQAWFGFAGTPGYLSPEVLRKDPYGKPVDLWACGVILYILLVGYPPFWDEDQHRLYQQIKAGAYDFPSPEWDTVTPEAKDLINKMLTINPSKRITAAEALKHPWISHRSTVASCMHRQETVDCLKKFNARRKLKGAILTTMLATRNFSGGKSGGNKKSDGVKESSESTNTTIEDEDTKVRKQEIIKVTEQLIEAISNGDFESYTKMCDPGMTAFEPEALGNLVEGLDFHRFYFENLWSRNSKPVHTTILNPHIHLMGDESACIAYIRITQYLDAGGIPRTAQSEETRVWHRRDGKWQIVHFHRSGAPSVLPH
With CCCCCCCCC1=C(CCCCCCCC(=O)O)C1 the inhibition was 19%.
O=C(O)Cc1cc(O)ccc1O[C@@H]1O[C@H](CO)[C@@H](O)[C@H](O)[C@H]1O has an inhibition of 7%.
COC(=O)CCc1ccc(OCC(O)CNC(C)C)cc1 (centres unmarked) has an inhibition of 0%.
The inhibition of CC[C@H](C)C(=O)O[C@H]1C[C@H](O)C=C2C=C[C@H](C)[C@H](CC[C@@H](O)C[C@@H](O)CC(=O)O)[C@H]21 is reported as 15%.
For COc1ccc([C@@H]2CC(=O)c3c(O)cc(O[C@@H]4O[C@H](CO)[C@@H](O)[C@H](O)[C@H]4O[C@@H]4O[C@@H](C)[C@H](O)[C@@H](O)[C@H]4O)cc3O2)cc1, the inhibition was -26%.
For CC(=O)OCC(CCn1cnc2cnc(N)nc21)COC(C)=O, the inhibition was -10%.
The inhibition of COc1cc(OC)c(C(=O)O)cc1OC is reported as 9%.
With Cc1cc(O)cc(C)c1Cl the inhibition was -12%.
C[C@H]1CC[C@@]2(OC1)O[C@H]1C[C@H]3[C@@H]4CC[C@@H]5C[C@@H](O[C@@H]6O[C@H](CO)[C@H](O)[C@H](O)[C@H]6O)CC[C@]5(C)[C@H]4CC[C@]3(C)[C@H]1[C@@H]2C gave an inhibition of -20%.
With O=c1c(-c2ccccc2)coc2ccccc12 the inhibition was 18%.
O=C(/C=C/c1ccc(O)c(O)c1)OCCc1ccccc1 has an inhibition of -7%.

Set 2 — action: inhibitor; tested at: 1 µM
Compound: C=CC(=O)N1CCC[C@@H](n2nc(-c3ccc(Oc4ccccc4)cc3)c3c(N)ncnc32)C1
The inhibition was 0% (CDK11A (Homo sapiens, UniProt Q9UQ88); enzyme activity).
KIT (Homo sapiens, UniProt P10721, T670I/V559D) — inhibition: 2%.
For DDR2 (Homo sapiens, UniProt Q16832): inhibition read 3%.
It gave 18% for inhibition (RET (Homo sapiens, UniProt P07949, V804L); enzyme activity).
ALK (Homo sapiens, UniProt Q9UM73) — inhibition: 23%.
It gave 29% for inhibition (Ribosomal protein S6 kinase alpha-2, kinase domain 1 (RPS6KA2, Homo sapiens, UniProt Q15349)).
CDK4 (Homo sapiens, UniProt P11802) — inhibition: 3%.
The inhibition was 5% (MAPK15 (Homo sapiens, UniProt Q8TD08); enzyme activity).
For FLT3 (Homo sapiens, UniProt P36888, D835H): inhibition read 67%.
The inhibition was 98% (EGFR (Homo sapiens, UniProt P00533, A750P/del747-749)).
The inhibition was 0% (MYLK2 (Homo sapiens, UniProt Q9H1R3); enzyme activity).

Set 3 — cell line: mouse MPNST tumor cells; method: high-content nuclear imaging; measured: cell number; tested at: 10 µM; time: 12 h; setting: mean of 2 replicates; reference: plate mean; direction: higher = more cells
For COc1c2occc2c(OC)c2c(=O)cc(C)oc12, the nuclei count was 0.561 z-score.
With CC(=O)[C@H]1CC[C@H]2[C@@H]3C[C@H](C)C4=CC(=O)CC[C@]4(C)[C@H]3[C@@H](O)C[C@]12C the nuclei count was -0.832 z-score.
For COc1cc(Br)c(S(=O)(=O)Nc2ccc(Cl)c(OC3CCN(C)C3)c2)cc1OC (centres unmarked), the nuclei count was 0.763 z-score.
O=C(O)c1cc(-c2ccc(C3CCNCC3)cc2)c2ccc(-c3ccc(C(F)(F)F)cc3)cc2c1 gave a nuclei count of 1.52 z-score.
With C[C@H](NC(=O)CCc1ccc(F)c(F)c1)c1cncc(N2CCN(c3ccccn3)CC2)n1 the nuclei count was 0.33 z-score.
CC(C)Oc1ccc(-c2c[nH]cc2CN(C)CCN)cc1 gave a nuclei count of 3.7 z-score and 2.39 z-score.
For CCCc1cc(C)n(C)c(=O)c1CN(C)C(=O)c1cc(-c2ccc(N3CCN(C(C)C)CC3)nc2)cc2c1cnn2C(C)C, the nuclei count was 2.83 z-score.
C[C@H]1C[C@@H]2[C@H]([C@@H](O)C[C@@]3(C)[C@H]2CC[C@]3(O)C(=O)CO)[C@@]2(C)C=CC(=O)C=C12 has a nuclei count of 3.93 z-score.
The nuclei count of Nc1ccn([C@@H]2O[C@H](CO)[C@@H](O)[C@@H]2O)c(=O)n1 is reported as -4.04 z-score and -4.47 z-score.
CCCN(CCc1cccs1)[C@H]1CCc2c(O)cccc2C1 has a nuclei count of -0.137 z-score.
The nuclei count of O=C(O)CCC(=O)Nc1ccc(S(=O)(=O)Nc2nccs2)cc1 is reported as 2.22 z-score.
For CC[N+](C)(CC)CCC[n+]1c(-c2ccccc2)c2cc(N)ccc2c2ccc(N)cc21, the nuclei count was -0.332 z-score.
The nuclei count of Cc1cc(NC(=O)C(c2ccccc2)N2CCCc3ccccc32)no1 (centres unmarked) is reported as -0.146 z-score.
COc1cc2c(cc1OC)CN(CCc1ccc(NC(=O)c3cc(OC)c(OC)cc3NC(=O)c3cnc4ccccc4c3)cc1)CC2 has a nuclei count of 3.77 z-score.
The nuclei count of Nc1ncnc2c1c(-c1ccc(Oc3ccccc3)cc1)nn2C1CCCC1 is reported as -0.116 z-score.

Set 4 — Compound: Cn1cnc2cc3c(Nc4cccc(Br)c4)ncnc3cc21; observed: enzyme activity; action: inhibitor; tested at: 0.5 µM; reference: control
FER (Homo sapiens, UniProt P16591) — remaining activity: 90.6%.
CDC42BPA (Homo sapiens, UniProt Q5VT25) — remaining activity: 93.2%.
It gave 94.4% for remaining activity (Insulin receptor (INSR, Homo sapiens, UniProt P06213)).
PASK (Homo sapiens, UniProt Q96RG2) — remaining activity: 89.8%.
TAOK3 (Homo sapiens, UniProt Q9H2K8) — remaining activity: 97.6%.
The remaining activity was 55.8% (FGR (Homo sapiens, UniProt P09769)).
SRC (Homo sapiens, UniProt P12931) — remaining activity: 81.2%.
For MATK (Homo sapiens, UniProt P42679): remaining activity read 85.9%.
It gave 89.7% for remaining activity (FLT4 (Homo sapiens, UniProt P35916)).
For ITK (Homo sapiens, UniProt Q08881): remaining activity read 102%.
The remaining activity was 85.9% (FYN (Homo sapiens, UniProt P06241)).
For PKN1 (Homo sapiens, UniProt Q16512): remaining activity read 89.1%.
For NEK11 (Homo sapiens, UniProt Q8NG66): remaining activity read 101%.
It gave 92.5% for remaining activity (Cyclin-dependent kinase 3, with cyclin E (CDK3, Homo sapiens, UniProt Q00526)).
It gave 104% for remaining activity (MARK3 (Homo sapiens, UniProt P27448)).
For ALK (Homo sapiens, UniProt Q9UM73): remaining activity read 92.4%.
It gave 89.1% for remaining activity (AKT1 (Homo sapiens, UniProt P31749)).
PRKX (Homo sapiens, UniProt P51817) — remaining activity: 101%.
STK25 (Homo sapiens, UniProt O00506) — remaining activity: 99%.
It gave 108% for remaining activity (HIPK1 (Homo sapiens, UniProt Q86Z02)).
The remaining activity was 100% (NLK (Homo sapiens, UniProt Q9UBE8)).
It gave 99% for remaining activity (LIM domain kinase 1 (LIMK1, Homo sapiens, UniProt P53667)).

Some of these lines once more (set 1):
O=C(O)Cc1cc(O)ccc1O[C@@H]1O[C@H](CO)[C@@H](O)[C@H](O)[C@H]1O has an inhibition of 7%.
With CCCCCCCCC1=C(CCCCCCCC(=O)O)C1 the inhibition was 19%.
The inhibition of CC[C@H](C)C(=O)O[C@H]1C[C@H](O)C=C2C=C[C@H](C)[C@H](CC[C@@H](O)C[C@@H](O)CC(=O)O)[C@H]21 is reported as 15%.
O=C(/C=C/c1ccc(O)c(O)c1)OCCc1ccccc1 has an inhibition of -7%.
For COc1ccc([C@@H]2CC(=O)c3c(O)cc(O[C@@H]4O[C@H](CO)[C@@H](O)[C@H](O)[C@H]4O[C@@H]4O[C@@H](C)[C@H](O)[C@@H](O)[C@H]4O)cc3O2)cc1, the inhibition was -26%.
C[C@H]1CC[C@@]2(OC1)O[C@H]1C[C@H]3[C@@H]4CC[C@@H]5C[C@@H](O[C@@H]6O[C@H](CO)[C@H](O)[C@H](O)[C@H]6O)CC[C@]5(C)[C@H]4CC[C@]3(C)[C@H]1[C@@H]2C gave an inhibition of -20%.
The inhibition of COc1cc(OC)c(C(=O)O)cc1OC is reported as 9%.
COC(=O)CCc1ccc(OCC(O)CNC(C)C)cc1 (centres unmarked) has an inhibition of 0%.
